Experimental data collected from several papers.
Each line is one published result; not all experiments were run side by side. “And” joins repeats or separate records; there may be more than shown.

CC1=CC(C)=[N+]2C1=C(c1ccc(C[P+](c3ccccc3)(c3ccccc3)C3CCCCC3)cc1)c1c(C)cc(C)n1[B-]2(F)F — absorption maximum (PBS; 10 µM, pH 7.4, 298 K): 497 nm
COc1cc(OC)cc(C2=C3C(C)=C(I)C(C)=[N+]3[B-](F)(F)n3c(C)c(I)c(C)c32)c1 — absorption maximum (dichloromethane): 535 nm
COc1cc(/C=C2\SC(=S)NC2=O)cc(OC)c1OCc1ccc(B2OC(C)(C)C(C)(C)O2)cc1 — absorption maximum (PBS; free ligand): 540 nm
COc1cc(OC)cc(C2=C3C(C)=C(I)C(C)=[N+]3[B-](F)(F)n3c(/C=C/c4cccs4)c(I)c(C)c32)c1 — absorption maximum (THF): 598 nm
COc1ccc2cc(-c3ccc(-c4ccc(C)cn4)nc3)oc2c1 — absorption maximum (acetonitrile; zinc complex): 381 nm
CC1=CC(C)=[N+]2C1=C(c1ccc(C[P+](C3CCCCC3)(C3CCCCC3)C3CCCCC3)cc1)c1c(C)cc(C)n1[B-]2(F)F — absorption maximum (PBS; 10 µM, pH 7.4, 298 K): 497 nm
COc1ccc(/C=C/c2ccc(-c3ccc(C)cn3)nc2)cc1 — absorption maximum (aqueous HEPES buffer; pH 7.4, zinc-free ligand): 344 nm
COc1cc(OC)cc(C2=C3C(C)=C(I)C(/C=C/c4cccs4)=[N+]3[B-](F)(F)n3c(/C=C/c4cccs4)c(I)c(C)c32)c1 — absorption maximum (DMSO): 675 nm
CC1=CC(C)=[N+]2C1=C(c1ccc(C[P+](c3ccccc3)(C3CCCCC3)C3CCCCC3)cc1)c1c(C)cc(C)n1[B-]2(F)F — absorption maximum (PBS; 10 µM, pH 7.4, 298 K): 497 nm
Cc1ccc(-c2ccc(-c3cc4sccc4o3)cn2)nc1 — absorption maximum (acetonitrile; zinc complex): 380 nm
COCCOCCOCCOc1ccc(/C=C/c2c(I)c(C)c3n2[B-](F)(F)[N+]2=C(C)C(I)=C(C)C2=C3c2cc(OC)cc(OC)c2)cc1 — absorption maximum (THF): 598 nm
COc1cc(/C=C2\SC(=S)NC2=O)cc(OC)c1O — absorption maximum (PBS; phenolic form, without FAST): 409 nm
COC(=O)c1ccccc1-c1c2ccc(=N)cc-2oc2c1ccc1cccc(OC)c12 — absorption maximum (phosphate buffer; 10 to 15 µM, pH 7.4, 10% DMSO): 538 nm
CCCCN1C(=O)c2cccc3c(NCCCCCN4CCOCC4)ccc(c23)C1=O — absorption maximum (aqueous medium; pH 6): 452 nm
COC(=O)c1cc(=O)n(C)c2c(-c3ccc(OC)cc3)csc12 — absorption maximum (dichloromethane; 10 µM): 235 nm
CCCCN1C(=O)c2cccc3c(NCCCCCCCCCCN4CCOCC4)ccc(c23)C1=O — absorption maximum (aqueous medium; pH 6): 452 nm
CCn1cc(/C=C/c2sc3ccccc3[n+]2CC)c2ccccc21 — absorption maximum (DMSO; 10 µM): 478 nm
COc1cc(OC)cc(C2=C3C(C)=C(I)C(/C=C/c4c[nH]c5ccc([N+](=O)[O-])cc45)=[N+]3[B-](F)(F)n3c(/C=C/c4c[nH]c5ccc([N+](=O)[O-])cc45)c(I)c(C)c32)c1 — absorption maximum (THF): 695 nm
CCn1cc(/C=C/c2ccc3ccccc3[n+]2CC)c2ccccc21 — absorption maximum (MeOH; 10 µM): 483 nm
CC1=CC(C)=[N+]2C1=C(CCCC(=O)NCCCCCC(=O)NCCCCCC(=O)NCCCC[C@H](NC(=O)N[C@@H](CCC(=O)O)C(=O)O)C(=O)O)c1c(C)cc(C)n1[B-]2(F)F — absorption maximum (acetonitrile/water): 496 nm
COc1cccc(Cc2cc(CCC(=O)NCCNc3cccc4c(S(=O)(=O)O)cccc34)nn(CC(=O)Nc3ccc(Br)cc3)c2=O)c1 — absorption maximum: ~340 nm
COc1cc(OC)cc(C2=C3C(C)=C(I)C(C)=[N+]3[B-](F)(F)n3c(/C=C/c4c[nH]c5ccccc45)c(I)c(C)c32)c1 — absorption maximum (THF): 627 nm
CCCCN1C(=O)c2cccc3c(NCCCCCCN4CCOCC4)ccc(c23)C1=O — absorption maximum (toluene): 426 nm
CC1=[N+]2C(=C(CCl)c3ccc(C)n3[B-]2(F)F)C=C1 — absorption maximum (PBS/DMSO 90:10 v/v; about 1 µM, pH 8.0): 528 nm
COC(=O)c1ccccc1-c1c2ccc(=O)cc-2oc2c1ccc1cccc(O)c12 — absorption maximum (aqueous HCl 10% DMSO; 10 to 15 µM, pH 1.9): 530 nm
CC1=CC(C)=[N+]2C1=C(CCCC(=O)O)c1c(C)cc(C)n1[B-]2(F)F — absorption maximum (acetonitrile/water): 494 nm
CCCCN1C(=O)c2cccc3c(NCCCCN4CCOCC4)ccc(c23)C1=O — absorption maximum (aqueous medium; pH 6): 449 nm
CCOC(=O)c1[nH]c(C)c(/C=C/C2=[N+]3C(=C(c4cc(OC)cc(OC)c4)c4c(C)c(I)c(/C=C/c5c(C)[nH]c(C(=O)OCC)c5C)n4[B-]3(F)F)C(C)=C2I)c1C — absorption maximum (dichloromethane): 678 nm
COC(=O)c1ccccc1-c1c2ccc(=O)cc-2oc2c1ccc1cccc(N)c12 — absorption maximum (aqueous NaOH 10% DMSO; pH 12.1, conjugate base): 509 nm and 549 nm
COc1cc(OC)cc(C2=C3C(C)=C(I)C(/C=C/c4c[nH]c5ccccc45)=[N+]3[B-](F)(F)n3c(/C=C/c4c[nH]c5ccccc45)c(I)c(C)c32)c1 — absorption maximum (DMSO): 727 nm
CC1=CC(C)=[N+]2C1=C(CCCC(=O)NCC1CCC(C(=O)NC(Cc3ccc4ccccc4c3)C(=O)NCCCCC(NC(=O)NC(CCC(=O)O)C(=O)O)C(=O)O)CC1)c1c(C)cc(C)n1[B-]2(F)F (centres unmarked) — absorption maximum (acetonitrile/water): 496 nm
Nc1ncnc2c1nc(-n1nnc3c1CCC1C(CO)C1CC3)n2C1CC(O)C(CO)O1 (mixture of isomers) — absorption maximum (methanol): 272 nm

For quick reference, copied from above:
CC1=CC(C)=[N+]2C1=C(c1ccc(C[P+](c3ccccc3)(c3ccccc3)C3CCCCC3)cc1)c1c(C)cc(C)n1[B-]2(F)F — absorption maximum (PBS; 10 µM, pH 7.4, 298 K): 497 nm
COc1cc(OC)cc(C2=C3C(C)=C(I)C(/C=C/c4c[nH]c5ccccc45)=[N+]3[B-](F)(F)n3c(/C=C/c4c[nH]c5ccccc45)c(I)c(C)c32)c1 — absorption maximum (DMSO): 727 nm
COc1ccc2cc(-c3ccc(-c4ccc(C)cn4)nc3)oc2c1 — absorption maximum (acetonitrile; zinc complex): 381 nm
CCCCN1C(=O)c2cccc3c(NCCCCCN4CCOCC4)ccc(c23)C1=O — absorption maximum (aqueous medium; pH 6): 452 nm
